Results of several laboratories.
Parts stem from different laboratories: compare values within a part only.

Sample 1
Target: Interferon regulatory factor 7, full length, phosphomimetic (IRF7, Homo sapiens, UniProt Q92985, residues 1-503, S101K/S471D/S472D/S475D/S476D/S477D/S483D/S484D/S487D)
Sequence of UniProt Q92985 (whole entry, unmodified, looked up): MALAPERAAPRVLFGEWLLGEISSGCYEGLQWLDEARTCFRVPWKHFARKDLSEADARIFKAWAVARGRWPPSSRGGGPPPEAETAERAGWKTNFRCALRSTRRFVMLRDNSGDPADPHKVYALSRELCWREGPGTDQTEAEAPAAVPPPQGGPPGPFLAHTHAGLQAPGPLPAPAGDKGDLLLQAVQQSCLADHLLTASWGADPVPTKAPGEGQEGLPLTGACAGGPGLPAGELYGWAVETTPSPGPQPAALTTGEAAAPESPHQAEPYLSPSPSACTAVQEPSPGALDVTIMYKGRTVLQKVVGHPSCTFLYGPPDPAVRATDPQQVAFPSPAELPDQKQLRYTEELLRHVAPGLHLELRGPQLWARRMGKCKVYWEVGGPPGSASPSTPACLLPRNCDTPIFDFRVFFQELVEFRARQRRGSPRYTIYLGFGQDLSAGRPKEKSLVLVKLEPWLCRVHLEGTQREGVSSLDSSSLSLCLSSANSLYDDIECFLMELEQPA
Technique: protein-binding microarray
Molecule type: double-stranded DNA, one strand shown
Medium: in vitro
Concentration: 250 nM
Setting: 60-bp whole probe
Added: salmon DNA 0.4 mg/ml
Baseline: random background probes
Reading: higher = stronger binding
With `GCCTAGCACCTAGGTATCCTACTGCTTTAGTGCTAGGTCTTGATTCGCTTGACGCTGCTG` the log fluorescence was 0.0463 z-score.
With `GCCTAGCACTTAGGCTTCGACACTGGGTTAGTGCTAGTCTTGATTCGCTTGACGCTGCTG` the log fluorescence was -0.592 z-score.
With `GCCTAGCACTTAGGTATCGGGCTGGGTTAGTGCTAGGTCTTGATTCGCTTGACGCTGCTG` the log fluorescence was -0.245 z-score.
For `GCCTAGCACTAAGATCTCAGTTTCGATTAGTGCTAGGTCTTGATTCGCTTGACGCTGCTG`, the log fluorescence was 9.16 z-score.

Sample 2
Target: Prothrombin, mature alpha-thrombin (F2, Homo sapiens, UniProt P00734)
Technique: aptamer microarray, sandwich
Molecule type: DNA with 2'F-ANA
Medium: in vitro
Concentration: 200 nM
Setting: whole 15-mer aptamer, many near background
Added: Cy3 exosite-II aptamer, 400 nM
Reading: higher = stronger binding
Oligonucleotide: GGTTGGTGTGGTTGG
For `2'F-ANA at 1 4 5 8 11 15`, “mean fluorescence intensity” read 50.9 a.u.
`2'F-ANA at 4 7 10 12 14` — result for “mean fluorescence intensity”: 66.3 a.u.
For `2'F-ANA at 1 3 5 6 8 9 12 14 15`, “mean fluorescence intensity” read 112 a.u.
`2'F-ANA at 2 4 5 7 8 12 15`: “mean fluorescence intensity” 169 a.u.
`2'F-ANA at 4 5 8 9 10 11 13 14` — result for “mean fluorescence intensity”: 43.5 a.u.

Sample 3
Target: Ras GTPase-activating protein-binding protein 1, RRM domain (G3BP1, Homo sapiens, UniProt Q13283)
Sequence of UniProt Q13283 (whole entry, looked up): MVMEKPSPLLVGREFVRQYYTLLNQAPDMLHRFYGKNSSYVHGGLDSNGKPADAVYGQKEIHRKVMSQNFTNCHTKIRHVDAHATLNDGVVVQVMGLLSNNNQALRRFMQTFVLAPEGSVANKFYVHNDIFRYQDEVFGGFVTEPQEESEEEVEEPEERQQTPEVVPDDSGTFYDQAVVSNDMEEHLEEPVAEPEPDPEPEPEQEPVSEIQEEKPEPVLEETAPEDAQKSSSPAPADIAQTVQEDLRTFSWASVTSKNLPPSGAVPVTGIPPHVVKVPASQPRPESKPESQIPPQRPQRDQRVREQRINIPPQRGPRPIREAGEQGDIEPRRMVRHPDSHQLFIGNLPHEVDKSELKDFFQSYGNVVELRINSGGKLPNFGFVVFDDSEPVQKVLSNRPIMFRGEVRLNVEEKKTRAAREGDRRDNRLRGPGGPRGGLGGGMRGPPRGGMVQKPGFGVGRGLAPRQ
Technique: RNA Bind-n-Seq
Molecule type: RNA
Medium: in vitro
Concentration: 1 µM
Setting: whole 134-nt RNA, ends assumed
Added: 150 mM KCl
Baseline: input library
Reading: higher = stronger binding
`GGGAGUUCUACAGUCCGACGAUCCUCAAGUCCUGUGCUACACAUCGUAUGUACCGAAUCGGUUGGGGUUGGGGUUGGAAAGUAUUAUGUUACGCCGUUCGGAUCUGCACUUCCUGGAAUUCUCGGGUGUCAAGG` gave a log2 enrichment of -0.23.
The log2 enrichment of `GGGAGUUCUACAGUCCGACGAUCCCUGUGCUACACAUCGUAUGUACCGAAUCGGGGUUUUUUGGUUUUUUGGGGUUUUUUGGGGAAAGUAUUAUGUUACGCCGUUCGGAUCUGUGGAAUUCUCGGGUGUCAAGG` is reported as -0.307.
With `GGGAGUUCUACAGUCCGACGAUCGUCCUGUGCUACACAUCGUAUGUACCGAAUCGGGGAAAAAGGGGUUUUUGGGGUGGGGAAAGUAUUAUGUUACGCCGUUCGGAUCUGCACUGGAAUUCUCGGGUGUCAAGG` the log2 enrichment was 0.952.
For `GGGAGUUCUACAGUCCGACGAUCAAGUCCUGUGCUACACAUCGUAUGUACCGAAUCGGAAAAAAAGGUUUUUUUGGAGGAAAGUAUUAUGUUACGCCGUUCGGAUCUGCACUUUGGAAUUCUCGGGUGUCAAGG`, the log2 enrichment was -0.334.

Single results of other studies
`PhoQ, residues 284 288 289 292 302 303 SMYGEC` has a fold induction of 1.41 (PhoP, residues 12 14 15 18 19 SYFRT (Escherichia coli, UniProt P23836); Sort-seq, refers to: YFP reporter; E. coli; PhoQ-PhoP variant library, added: 10 µM Mg2+; baseline: high Mg2+ state, higher = stronger signaling).
